Measurements pooled from the literature.
Lines come from different studies, so protocols differ.
Organism: Pseudomonas aeruginosa

For `CC(C)C[C@H](NC(=O)[C@H](C)NC(=O)[C@H](CCCCN)NC(=O)[C@H](CC(C)C)NC(=O)[C@H](CC(C)C)NC(=O)[C@H](CCCCN)NC(=O)[C@H](CCCCN)NC(=O)[C@H](CC(C)C)NC(=O)[C@H](CC(C)C)NC(=O)[C@H](CCCCN)NC(=O)[C@H](CC(C)C)NC(=O)[C@H](CC(C)C)NC(=O)[C@@H](N)CCCCN)C(=O)NCC(N)=O`, the MIC was over 20 µM (ATCC 19606, CAMHB; 18 h, 37 °C).
For `CC(C)C[C@H](NC(=O)[C@H](CCCCN)NC(=O)[C@H](Cc1ccc(O)cc1)NC(=O)[C@@H](N)CS)C(=O)N[C@H](C(=O)N1CCC[C@H]1C(=O)N[C@H](C(=O)N[C@@H](CCC(=O)O)C(=O)N1CCC[C@H]1C(=O)N[C@@H](CC(=O)O)C(=O)N[C@@H](CCCCN)C(=O)N[C@H](C(=O)N[C@@H](CCC(=O)O)C(=O)N[C@@H](CCC(=O)O)C(=O)N[C@@H](C)C(=O)N[C@@H](CC(N)=O)C(=O)N[C@@H](CCCCN)C(=O)NCC(=O)N[C@@H](CCC(=O)O)C(=O)N[C@@H](CC(N)=O)C(=O)O)C(C)C)C(C)C)C(C)C`, the MIC was 20 µM (broth microdilution; PTCC 1074; overnight, 37 °C).
With `O=[N+]([O-])c1ccc(-n2ccnc2)c([N+](=O)[O-])c1` the MIC was 125 µg/mL (ATCC 29853).
For `CC(C)C[C@H](NC(=O)CN)C(=O)N[C@@H](Cc1ccccc1)C(=O)N[C@@H](CCCCN)C(=O)N[C@@H](CC(C)C)C(=O)N[C@@H](CC(C)C)C(=O)N[C@@H](CCCCN)C(=O)N[C@@H](CCCCN)C(=O)N[C@@H](CC(C)C)C(=O)N[C@@H](CC(C)C)C(=O)N[C@@H](CCCCN)C(=O)N[C@@H](CC(C)C)C(=O)N[C@@H](CC(C)C)C(=O)N[C@@H](CCCCN)C(N)=O`, the MIC was over 20 µM (ATCC 19606, CAMHB; 18 h, 37 °C).
With `CC[C@H](C)[C@H](NC(=O)[C@H](C)NC(=O)[C@H](C)NC(=O)[C@H](CC(N)=O)NC(=O)[C@H](C)NC(=O)[C@H](C)NC(=O)[C@H](C)NC(=O)[C@H](CCCNC(=N)N)NC(=O)[C@H](CC(C)C)NC(=O)[C@@H](NC(=O)[C@H](CCC(=O)O)NC(=O)[C@@H]1CCCN1C(=O)CNC(=O)[C@H](CCCCN)NC(=O)[C@H](CCC(=O)O)NC(=O)[C@H](CCCCN)NC(=O)[C@@H](NC(=O)[C@H](Cc1ccccc1)NC(=O)[C@H](CC(=O)O)NC(=O)[C@H](CCCCN)NC(=O)[C@H](C)NC(=O)[C@H](CCCCN)NC(=O)[C@H](CC(N)=O)NC(=O)[C@H](CC(C)C)NC(=O)[C@H](Cc1c[nH]c2ccccc12)NC(=O)[C@H](CC(=O)O)NC(=O)[C@H](CCCCN)NC(=O)[C@H](Cc1c[nH]c2ccccc12)NC(=O)CN)[C@@H](C)CC)[C@@H](C)CC)C(=O)N[C@@H](CC(N)=O)C(=O)O` the MIC was 11.8 to 23.7 µM (broth microdilution; ATCC 27853; 20 h, 37 °C).
The MIC of `CC[C@H](C)[C@H](N)C(=O)N[C@@H](CC(C)C)C(=O)NCC(=O)N1CCC[C@H]1C(=O)N[C@H](C(=O)N[C@@H](CC(C)C)C(=O)NCC(=O)N[C@@H](CC(C)C)C(=O)N[C@H](C(=O)N[C@@H](CO)C(=O)N[C@@H](CC(=O)O)C(=O)N[C@H](C(=O)N[C@@H](CC(C)C)C(=O)N[C@@H](CC(=O)O)C(=O)N[C@@H](CC(=O)O)C(=O)N[C@H](C(=O)N[C@@H](CC(C)C)C(=O)NCC(=O)N[C@H](C(=O)N[C@@H](CC(C)C)C(=O)N[C@@H](CS)C(=O)O)[C@@H](C)CC)C(C)C)[C@@H](C)O)C(C)C)C(C)C` is reported as 90 µM (ATCC 27853; 24 h, 37 °C).
With `CC[C@H](C)[C@H](NC(=O)CNC(=O)[C@H](CCCNC(=N)N)NC(=O)[C@H](Cc1ccccc1)NC(=O)[C@@H](NC(=O)[C@H](Cc1c[nH]cn1)NC(=O)[C@H](Cc1c[nH]cn1)NC(=O)[C@H](Cc1ccccc1)NC(=O)[C@@H](N)Cc1ccccc1)[C@@H](C)CC)C(=O)N[C@H](C(=O)N[C@@H](Cc1c[nH]cn1)C(=O)N[C@H](C(=O)NCC(=O)N[C@@H](CCCCN)C(=O)N[C@H](C(=O)N[C@H](C(=O)N[C@@H](Cc1c[nH]cn1)C(=O)N[C@@H](CCCNC(=N)N)C(=O)N[C@@H](CC(C)C)C(=O)N[C@H](C(=O)N[C@H](C(=O)NCC(N)=O)[C@@H](C)O)C(C)C)[C@@H](C)CC)[C@@H](C)O)C(C)C)C(C)C` the MIC was 25 µg/mL (broth microdilution; ATCC 10662; 18 h, 37 °C).
For `N=C(N)NCCC[C@H](NC(=O)[C@H](Cc1c[nH]cn1)NC(=O)[C@@H]1CCCN1C(=O)[C@H](CS)NC(=O)CN)C(=O)N[C@@H](CS)C(=O)O`, the MIC was 90 µg/mL (broth microdilution; MTCC 1688; 37 °C).
For `CC[C@H](C)[C@H](N)C(=O)N[C@@H](CCCCN)C(=O)N[C@@H](Cc1c[nH]c2ccccc12)C(=O)N[C@@H](CCCCN)C(=O)N[C@@H](CCCCN)C(=O)N[C@@H](CC(C)C)C(=O)N[C@@H](CC(C)C)C(=O)N[C@@H](CCCNC(=N)N)C(=O)N[C@@H](C)C(=O)N[C@@H](C)C(=O)N[C@@H](CCCCN)C(=O)N[C@@H](CCCNC(=N)N)C(=O)N[C@H](C(=O)N[C@@H](CC(C)C)C(N)=O)[C@@H](C)CC`, the MIC was 6.25 µM (broth microdilution; PAO1).

Repeated from above:
For `N=C(N)NCCC[C@H](NC(=O)[C@H](Cc1c[nH]cn1)NC(=O)[C@@H]1CCCN1C(=O)[C@H](CS)NC(=O)CN)C(=O)N[C@@H](CS)C(=O)O`, the MIC was 90 µg/mL (broth microdilution; MTCC 1688; 37 °C).
